Assay results from different studies.
A part holds a random share of what one study measured. Positions count from the first letter of the parent shown.

Set 1 — technique: RNA Bind-n-Seq; molecule type: RNA; medium: in vitro; concentration: 100 nM; relative to: input RNA pool; reading: higher = stronger binding
Target: RING finger protein unkempt homolog, zinc fingers 1-6, SBP tag (UNK, Homo sapiens, UniProt Q9C0B0, residues 30-357)
Sequence of UniProt Q9C0B0 (30-357, looked up): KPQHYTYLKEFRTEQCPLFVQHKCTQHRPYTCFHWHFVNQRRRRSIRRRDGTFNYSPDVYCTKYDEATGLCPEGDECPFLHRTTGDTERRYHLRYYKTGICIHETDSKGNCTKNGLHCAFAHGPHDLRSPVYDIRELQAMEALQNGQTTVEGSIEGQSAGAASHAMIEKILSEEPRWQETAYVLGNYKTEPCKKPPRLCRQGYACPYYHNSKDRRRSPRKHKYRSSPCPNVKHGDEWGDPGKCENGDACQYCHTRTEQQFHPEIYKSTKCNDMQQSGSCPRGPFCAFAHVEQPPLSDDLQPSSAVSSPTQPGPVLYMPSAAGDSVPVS
Setting: RNA with constant flanks, vertebrate orthologous sites, ends assumed
Sequence	bound/input enrichment [ratio]
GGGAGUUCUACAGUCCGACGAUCGCAACAAUGAAAAAGCCCUUCUCCCAGCCCCUUUUUCACUAGGAGAUACAAACAUUACCAUAGAAGAGCAAUUAAACUCAAUAAAUUUAUCUUUUCAGGAUGAUCCAGACUCCAGUACAGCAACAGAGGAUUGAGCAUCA	1.46
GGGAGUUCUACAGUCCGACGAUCACAUCCUUUCUACUGUCCCUGGCCAGGGCCAAGAGCUGGAUGUCUCACCGACGGCCUGCAUUUAAAACAUUUUUUAAAUCAUUGUACAAGAAGAGGUGUGUCUGAACAUCUCCAAGUCAACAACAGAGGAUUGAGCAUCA	0.351
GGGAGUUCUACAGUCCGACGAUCGUGACUUUGGACGCCCGCAGAGUCUUGGUGCAGAGACUGCUGAGUCCUGGGCCUUGUGAGUUAAGUCUCCGUUCUUUCCGUACGCGAGGCCUCUGUUGCAACUAUGCUUCGCCAGAUCGUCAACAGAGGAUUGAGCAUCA	0.305
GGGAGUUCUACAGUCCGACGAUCUUUGUGGGGAUCGGGGGGUGGGAAGAAGAUGUAUGGAUGUUACUGGCAUUUUUAAGUCUUCAGAGUUUUUCUGUGUUUUUUUUCCCCCCUUCUGUUUUGUCCUUUGCCUUUAAUUAGGUGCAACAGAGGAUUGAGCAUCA	0.228
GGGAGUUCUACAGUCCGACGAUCAAUAGUUUUAAGCUUGUUUGCACAGUUUUUCCCUUCCAUUGGAGAUGGAAUUCAUUGCCUUAGGUCUUUUUAAUAGUGUAUUGUUAUCGUUGGGCUGGCUCUAUGCUUGAAAACCAGUUUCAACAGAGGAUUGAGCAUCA	1.93
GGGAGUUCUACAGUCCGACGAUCAAAUUCCCCCAUUGUCACUGAGAACCACCAAAUCUGACUUUUACAUUUGGUCUCAGAAUUUAGGUUCCUGCCCUGUUGGUUUUUUUUUUUUUUUUUUAAACAGUUUUCAAAAGUUCUUAACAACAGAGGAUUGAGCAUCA	1.53
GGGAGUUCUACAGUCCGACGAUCUUAAUCAGUUGACUUGUAUUCUGAUGAUAAAAUGUAACAUUGUGUAGCUUUUGUAUAAAAACAUGAAUUGGAAAUCGUCCAAAUAUCAAGCUAUUUUCUUGCUUUAAAGUUACUGAUGUGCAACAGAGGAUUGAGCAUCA	0.208
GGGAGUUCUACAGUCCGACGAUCCUACUAUAAACAACUCAGGGCAGUAUUCUCGGUAUCCUUACAGUAACCUAAAUCAGGGAUUAGUUAACAAUACAGGGAUGAAUCAAAAUUUAGGCCUUACAAAUAACGCUCCAAUGAAUCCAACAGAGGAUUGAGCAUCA	1.12
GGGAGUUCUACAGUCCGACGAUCAGAAAACUUUAGCCAGGAGUCUGAAAGUAGACAUACUGGUUCCUGGUUGUCUUCCUCUCUAAGAAAUAGAUGCACACCUUUAUUUUCAAGGAGACGUCGAGAAGGAAGAGAUGAAUCUACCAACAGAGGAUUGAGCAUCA	0.239
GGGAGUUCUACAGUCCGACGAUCCUUAAUUAGAAGGUAGUGUAUGUUUCAUAAAGAAAAGUCUUUAUAAUUUUGUUUGUCAUAUAGUAUUUUGGAAUUUGUAUAAUGAGGACGUUUAGAAGCCAUAUCAGUGGCUUUUUUUAACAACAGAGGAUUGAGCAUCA	0.503
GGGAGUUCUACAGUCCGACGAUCGAAGUAAAAUAUUGGAUGCAGUAUAUAAAUGAUCCAAGGCAGUGACUUCAGCUUUAGAUAUUAGUUUUAAGGUUAUUUUCAUUUAUUUAAACUUCUAGAUUGGAUUAUUUGUUAUUACCCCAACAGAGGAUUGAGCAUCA	1.24

Set 2 — technique: RNA Bind-n-Seq; molecule type: RNA; medium: in vitro; concentration: 20 nM; setting: 6-mer, flanks averaged, single round; with: 150 mM KCl; relative to: input library; reading: higher = stronger binding
Target: TAR DNA-binding protein 43, full length, His tag (TARDBP, Homo sapiens, UniProt Q13148, residues 1-414)
Sequence	6-mer enrichment (R)
GUCUGU	0.831
AACAGU	0.68
CGAAAA	0.642
UACACA	0.629
UAGGGU	1.8
GAGAGG	3.98
UUAAAC	0.569
CAACCC	0.627
CUAUCC	0.557
AUAUAG	0.663

Set 3 — technique: DHFR PCA, deep sequencing; medium: yeast; with: (+)-ABA 1.4 µM; relative to: wild-type fitted maximum; reading: higher = stronger binding
Target: ABI1, truncated, D143A, DHFR fusion (Arabidopsis thaliana)
Setting: methotrexate growth selection, single substitutions
Parent: PYL1, truncated, DHFR fusion (Arabidopsis thaliana); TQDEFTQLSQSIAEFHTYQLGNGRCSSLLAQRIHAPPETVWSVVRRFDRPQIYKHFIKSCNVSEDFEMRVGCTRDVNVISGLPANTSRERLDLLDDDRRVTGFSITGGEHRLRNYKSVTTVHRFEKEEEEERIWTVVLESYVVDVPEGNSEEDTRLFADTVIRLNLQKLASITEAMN; partner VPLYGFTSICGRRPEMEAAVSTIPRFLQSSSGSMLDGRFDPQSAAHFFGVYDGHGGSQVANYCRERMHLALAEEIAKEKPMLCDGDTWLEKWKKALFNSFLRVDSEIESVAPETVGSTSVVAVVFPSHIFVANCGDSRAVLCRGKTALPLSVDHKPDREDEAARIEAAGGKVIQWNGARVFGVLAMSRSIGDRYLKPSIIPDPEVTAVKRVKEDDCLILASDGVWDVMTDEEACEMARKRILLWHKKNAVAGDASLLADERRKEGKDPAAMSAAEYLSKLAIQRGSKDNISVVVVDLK
Change	relative binding score [%]
L164M	71.4
E127R	57.9
I33C	28.9
G71H	-1.36
Q167C	31.5
A30R	33.9
G23Q	27.5
L29C	25.6

Set 4 — technique: RNA Bind-n-Seq; molecule type: RNA; medium: in vitro; concentration: 200 nM; setting: whole 134-nt RNA, ends assumed; with: 150 mM KCl; relative to: input library; reading: higher = stronger binding
Target: Fragile X messenger ribonucleoprotein 1, C-terminal low-complexity region (Fmr1, Mus musculus, UniProt P35922)
Sequence	log2 enrichment
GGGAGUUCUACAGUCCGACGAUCUCAAGUCCUGUGCUACACAUCGUAUGUACCGAAUCGGAGGUUUUUUUGGAAAGGAAAGUAUUAUGUUACGCCGUUCGGAUCUGCACUUCCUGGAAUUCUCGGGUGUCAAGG	-0.838
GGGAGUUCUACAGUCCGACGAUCUCAAGUCCUGUGCUACACAUCGUAUGUACCGAAUCGGUUUGGAGGUUUUUUUGGAAAGUAUUAUGUUACGCCGUUCGGAUCUGCACUUCCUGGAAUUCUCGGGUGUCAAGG	-0.392
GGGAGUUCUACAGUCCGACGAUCGCAGGAAGUAAAAACAAAUGGAAAUGCUUCGGAUAGUGGCAGGGGUGGGGGUUGCUAAGGAAAGGGUGGGAGGGGAGUGGGUAAAGAGUUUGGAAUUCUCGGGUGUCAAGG	0.3
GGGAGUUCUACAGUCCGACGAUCUGGGAGGUGGAUUUUGUUUAUUUUUUUAGCUCAUUUCCAGUGGUGGGAAUUUUUUUUUAAUAUGUGUCAUGAAUAAAGUUGUUUUUGAAAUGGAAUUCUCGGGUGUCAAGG	-0.0796
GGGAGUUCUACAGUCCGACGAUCGUCCUGUGCUACACAUCGUAUGUACCGAAUCGGGGUUUUUUGGUUUUUUGGUUUUUUGGAAAGUAUUAUGUUACGCCGUUCGGAUCUGCAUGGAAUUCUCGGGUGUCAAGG	-0.627
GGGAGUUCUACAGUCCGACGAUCUGGGAGGUGGAUUUUGUUUAUUUUUUUAGCUCAUUUCCAGGGGUCGGAAUUUUUUUUUAAUAUGUGUCAUGAAUAAAGUUGUUUUUGAAAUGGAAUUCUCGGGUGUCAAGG	0.199
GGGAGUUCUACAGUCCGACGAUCACCAUGCAGGUGGGCAUCUUUGGGAAGUGGGGCAAGGGGGGGAUAGGGAGGGGGGUAACACUUUGGGAAAAGGUGGUCCCAGGUCGUUUCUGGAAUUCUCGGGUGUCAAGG	0.708
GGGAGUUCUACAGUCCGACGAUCUGGGAGGUGGCUUUUGUUUAUUUUUUUAGCUCAUUUCCAGGGGUGGGAAUUUUUUUUUAAUAUGUGUCAUGAAUAAAGUUGUUUUUGAAAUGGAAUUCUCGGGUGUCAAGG	0.889
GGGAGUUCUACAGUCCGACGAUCUGCCCCUGGUGGCAUGCGGGGAGGAAGAGGUGGCCUCAUGGAUCGUGGUGGUCCCGGUGGAAUGUUCAGAGGUGGCCGUGGUGGAGACAGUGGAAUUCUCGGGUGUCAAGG	0.0128
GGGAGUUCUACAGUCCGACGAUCAAGUCCUGUGCUACACAUCGUAUGUACCGAAUCGGGGAGGGGAAAGGGGUUUGGGGAAAGUAUUAUGUUACGCCGUUCGGAUCUGCACUUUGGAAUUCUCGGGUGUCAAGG	0.839

Other studies, line by line
Substance	tested on	test	system	conditions	how to read	quantity	result
QDYERRLLRQIVIQNE	Saccharomyces cerevisiae	binding, competitive growth deep sequencing	peptide, cyclin E1-Cln2 fusion strain	concentration not given, tiling library, Cln2 subtracted	direction not given	growth enrichment score	-0.272
PhoQ, residues 284 288 289 292 302 303 AGGCYF	PhoP, residues 12 14 15 18 19 NYFTV (Escherichia coli, UniProt P23836)	Sort-seq, refers to: YFP reporter	E. coli	PhoQ-PhoP variant library, with: 10 µM Mg2+	relative to: high Mg2+ state, higher = stronger signaling	fold induction	1.42
PHKTFRKLRLFDTPHT	Saccharomyces cerevisiae	binding, competitive growth deep sequencing	peptide, cyclin E1-Cln2 fusion strain	concentration not given, tiling library, Cln2 subtracted	direction not given	growth enrichment score	1.29

For quick reference, copied from above (set 2):
Sequence	6-mer enrichment (R)
CUAUCC	0.557
UAGGGU	1.8
CAACCC	0.627
GUCUGU	0.831
